Measurements pooled from the literature.
A part holds a random share of what one study measured.

Series 1
Target: Sal-like protein 4, full length isoform A (SALL4, Homo sapiens, UniProt Q9UJQ4, residues 1-1053)
Chain of UniProt Q9UJQ4 (whole entry, looked up): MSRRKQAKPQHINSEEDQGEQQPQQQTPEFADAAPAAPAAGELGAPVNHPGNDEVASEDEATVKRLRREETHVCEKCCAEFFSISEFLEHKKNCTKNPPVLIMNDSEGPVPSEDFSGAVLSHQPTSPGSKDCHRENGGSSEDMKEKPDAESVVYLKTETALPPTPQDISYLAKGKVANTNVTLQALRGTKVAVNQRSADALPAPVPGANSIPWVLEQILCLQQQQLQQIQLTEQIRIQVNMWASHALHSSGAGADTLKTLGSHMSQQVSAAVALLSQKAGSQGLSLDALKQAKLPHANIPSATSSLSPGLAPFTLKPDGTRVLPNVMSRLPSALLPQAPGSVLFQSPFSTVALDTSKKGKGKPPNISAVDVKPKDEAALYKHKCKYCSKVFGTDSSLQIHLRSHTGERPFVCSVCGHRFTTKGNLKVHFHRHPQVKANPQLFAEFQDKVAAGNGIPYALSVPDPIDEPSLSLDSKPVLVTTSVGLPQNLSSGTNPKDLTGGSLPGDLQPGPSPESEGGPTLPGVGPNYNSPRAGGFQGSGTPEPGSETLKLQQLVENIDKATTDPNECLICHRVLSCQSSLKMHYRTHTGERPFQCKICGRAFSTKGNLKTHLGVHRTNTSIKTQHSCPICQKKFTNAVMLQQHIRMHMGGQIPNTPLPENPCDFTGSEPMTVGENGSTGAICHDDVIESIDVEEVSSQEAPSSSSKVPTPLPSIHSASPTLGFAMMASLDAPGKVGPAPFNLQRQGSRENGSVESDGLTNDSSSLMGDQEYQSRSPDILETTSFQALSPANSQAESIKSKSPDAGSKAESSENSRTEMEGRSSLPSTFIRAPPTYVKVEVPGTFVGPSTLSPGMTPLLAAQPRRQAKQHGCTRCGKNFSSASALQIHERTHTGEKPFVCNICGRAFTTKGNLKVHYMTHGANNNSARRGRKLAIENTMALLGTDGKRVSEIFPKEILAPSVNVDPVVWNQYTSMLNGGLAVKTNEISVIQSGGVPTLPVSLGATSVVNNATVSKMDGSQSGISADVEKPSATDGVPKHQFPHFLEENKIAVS
Method: universal PBM
Form: double-stranded DNA, one strand shown
Sample: in vitro
Tested at: 600 nM
Setting: 8-mer, flanks averaged, mean of replicates
Direction: higher = stronger binding
Sequence	E-score
AATCGGTG	-0.0713
CACTAGTG	-0.132
CGTCTGGA	-0.218
AGTGGAGA	-0.0255
AAGTAACA	0.185
CCAGATAC	-0.0652
CAGGTTGC	-0.0351
GGCTCTTA	0.027
ATTTCTCA	0.154
AATCATGC	-0.0814
CACCGCGC	-0.394
CTCTTCGC	-0.11
CGCCCAAC	-0.232
GCGGCCAC	-0.347
AAAGGGCA	-0.0562
TAAATCAA	0.343
CTCAACCA	0.0161
CAAATGTA	0.301
CCATGGGA	-0.197
AACGCAAG	-0.0166
GCCAAGAA	-0.0784
ACGGAAAG	0.0168
GCTGCACA	-0.293
GCATGTTA	0.119
GATAAAGA	0.129

Series 2
Target: Centromere-binding protein 1, full length, His-tagged (CBF1, Saccharomyces cerevisiae, UniProt P17106, residues 1-351)
Chain of UniProt P17106 (whole entry, looked up): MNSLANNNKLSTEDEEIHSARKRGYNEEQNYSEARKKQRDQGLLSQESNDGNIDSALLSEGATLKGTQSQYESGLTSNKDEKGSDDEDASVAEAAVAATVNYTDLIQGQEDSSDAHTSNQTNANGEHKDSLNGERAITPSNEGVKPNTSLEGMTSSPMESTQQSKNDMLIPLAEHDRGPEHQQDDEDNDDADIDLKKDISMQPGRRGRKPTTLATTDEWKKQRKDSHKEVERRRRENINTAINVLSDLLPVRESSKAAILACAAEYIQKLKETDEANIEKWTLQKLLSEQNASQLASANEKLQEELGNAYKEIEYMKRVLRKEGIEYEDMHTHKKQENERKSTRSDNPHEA
Method: competition protein-binding microarray
Form: double-stranded DNA, one strand shown
Sample: in vitro
Tested at: 2 µM
Setting: whole 60-bp probe, lowest competitor level
Together with: Pho4 competitor, 0.05 µM
Direction: higher = stronger binding
Sequence	fluorescence intensity
CTTCTGTAAATTTTTCACGTGAAGTGAAGCGCCCCGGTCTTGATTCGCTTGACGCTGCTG	604 a.u.
TAGAGGCAAAGTAGTCACCTGACTGCGCAAGCCCATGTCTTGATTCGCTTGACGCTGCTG	2230 a.u.
GACAATTTGATTTATGACCTGATTCACAGAATTCGCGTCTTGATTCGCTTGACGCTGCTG	74.4 a.u.
ACAACAACATTATACAACGTGGTAACCAAATTTTTCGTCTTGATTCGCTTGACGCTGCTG	162 a.u.
TGCGCAACAACTTGTAGAGTGGGTGTATGTCTAGAAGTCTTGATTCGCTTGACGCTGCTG	57.5 a.u.
CGTCCTAGTGATTGTCACCGGACTTCCATGAGGAAGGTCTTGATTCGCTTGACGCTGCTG	79.6 a.u.
CACAGCTCCTGCTGACATGTGCCACTCCTGGAATGCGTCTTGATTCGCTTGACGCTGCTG	136 a.u.
ATGAAGTGAAATCGGCACGTGGAGGTCAGAAGAGTCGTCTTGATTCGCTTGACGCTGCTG	1050 a.u.
CCGCCGACACATATACACGTGTATATGTATGCCTATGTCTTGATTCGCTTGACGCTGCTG	1160 a.u.
TATTTATGTTTAATCCACGTTACACCACCAATTATAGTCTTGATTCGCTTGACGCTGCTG	105 a.u.
TGTTTGGCTGGTGTGTACGTGGTGAAAACCAAGAATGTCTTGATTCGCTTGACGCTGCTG	65.8 a.u.
AAAGTAAAATCCCAACACGTGATGGTGTTCGTCTGAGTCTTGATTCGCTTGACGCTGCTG	4110 a.u.
TATCCTAAATGCCATCACGATGATAAATCCTCCGCCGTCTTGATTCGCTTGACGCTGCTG	118 a.u.
CGTCCTAGTGATTGTGGGGTGGGTGCCATGAGGAAGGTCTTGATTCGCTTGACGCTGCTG	86 a.u.
ATGGGTCTGTTTACTCATGTGACGCTCTATGCGCTGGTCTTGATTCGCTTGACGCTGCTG	357 a.u.
AAAGCGGTAATTTTTCACGTGGAATCAAATATCTATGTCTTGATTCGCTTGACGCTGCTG	933 a.u.
CCCGCGACTCTAAAGCACGGGATTGAAGTCAGCTTCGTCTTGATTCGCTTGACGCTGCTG	279 a.u.
AAAGCGGTAATTTGTAAAGTGGGTGCAGATATCTATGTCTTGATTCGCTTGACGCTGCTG	69.5 a.u.
CGTCCTAGTGATTGTAAAGTGGGTGCCATGAGGAAGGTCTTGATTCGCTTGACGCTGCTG	86 a.u.
AAATTACTAAGTTTTCACGTGAACTACCCCGTATGAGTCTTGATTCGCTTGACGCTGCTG	875 a.u.

Series 3
Target: RNA binding protein fox-1 homolog 2, RRM domain, GST-SBP tag (RBFOX2, Homo sapiens, UniProt O43251-10, residues 100-194)
Method: RNA Bind-n-Seq
Form: RNA
Sample: in vitro
Tested at: 365 nM
Setting: natural RNA segment, single round, ends assumed
Baseline: no-protein control
Direction: higher = stronger binding
Target sequence (chain): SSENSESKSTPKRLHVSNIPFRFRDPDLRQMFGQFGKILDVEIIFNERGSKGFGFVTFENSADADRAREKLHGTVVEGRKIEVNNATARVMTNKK
Sequence	RBNS enrichment (R)
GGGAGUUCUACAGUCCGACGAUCAAUAUUCAAACACUUUUGUGGCAUACAAAGUAAAAAAAAAAAGUGUAUCUGAGAAACUAAACAUGUAUUAAAUGUGCUUUUUAAAUAAAAGCUCAUAACACAACUAACCAUGGAAUUCUCGGGUGCCAA	0.887
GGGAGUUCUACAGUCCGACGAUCUGCCCCAGAUUGCAAAUGCAUCCAGUCAGUAAUAUCACUGUCUGUAUGUGGAGGACAUGUUCCCAUGGAUCAUAUGUGAAGAUGUCAAUAAGCUUGCAUUAAGCCACCUGUGGAAUUCUCGGGUGCCAA	0.222
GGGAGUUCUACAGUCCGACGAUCUGUGUGUGUGUGCUAUCCAAAUAUAUUUGUAUAUAUUUGUAUAGCAUUUUUACACUUUAGGAGUAAUCUGGAAUUCAAAAGGGAAUGAGAGCUUACUCCCUUCCACAGUUUGGAAUUCUCGGGUGCCAA	0.284
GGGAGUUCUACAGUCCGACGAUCCCUCAGUUUUCCAUCUGUUUUUGAUAAGAAUAAGAAAGGGAGUGAGUGUGAAGAUGGUGGUUAGCAGUUUCACUAAGACUGAUAUUUUAGGCCUCUUGUUCACAUCAAAAUGGAAUUCUCGGGUGCCAA	0.433
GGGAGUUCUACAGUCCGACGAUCAACAGGUGGGCUGCCGCCCAUGGAACCGGUGGCUGUUUCUCUACCCUUCACAUCAAGCUGGCCUUGCCCUCUCCCGGGACAGUGCCUGUUAACCUUCAUGUGACAAAACAUGGAAUUCUCGGGUGCCAA	0.206
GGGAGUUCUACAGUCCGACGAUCAUUGUGGAUGCCACACAGUCCAUCUGGGGUGCCCUGUGCCUCCCAUUUUCACAGCCGCCCACUGUUGUAGAAUAAUCGCUGCCUUUACCCUCUGCAGUACCCUCAGUCAUUGGAAUUCUCGGGUGCCAA	0.395
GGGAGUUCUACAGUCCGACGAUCUUAGAGAUACCAGAAUGCUGGUAUUCUACUACUUGUGCAAUAUAUAUGUUUUAAAAAACAAAUUUGAGAAUACAUUUAAUCAUAGGGAUAUAGAUAUAAGCACCUCUCUAUGGAAUUCUCGGGUGCCAA	0.435
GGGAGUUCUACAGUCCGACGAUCCUUUUUGUAUAGAAAGCACUACCCUAAGCCAUGAGGAUCUCCAUGCUUUGCUAACCAAGAUAACUGUUUUCUCUUUGUAGAAGUUUUGUUUUUGAAAUGUGUAUUUCUAAUGGAAUUCUCGGGUGCCAA	0.55
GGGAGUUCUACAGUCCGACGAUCCUGUGUGUAGUCCUGCUUCUUCCAGUCUGCAGUAUUCACUAGAGGCGCCCUUUGCAUGUUGCACUCUGUUCUCAUUUGGAGGUUGGACUCAGACCAGUUAGCACAGUAUUUGGAAUUCUCGGGUGCCAA	19.9
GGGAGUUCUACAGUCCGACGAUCAUGUUUCAGUCUUUCGGAGUAAAUCACAUUUGUGAUAAUCAUACUAGAUCUCUGUCUUCAGUCUCAUUUAAAGUCUUCAUGAAAUGCUGUGCCAUUUCAUGUCCUGUGUCUGGAAUUCUCGGGUGCCAA	0.503
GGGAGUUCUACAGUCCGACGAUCAGCCCUGUGCUCCGUGACUCCCACGCAUGAACUCAUCAGGGCCGUGUCUACUCCUUAAUUGUCACAUUAGAAUUUGGUCGGCCAUUGUUUUGGUUAUGUUGCUGAUGUAAUGGAAUUCUCGGGUGCCAA	15.7
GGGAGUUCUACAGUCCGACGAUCAAAUUUUUGUACAAUAAAAUAUCCUGGAUUUGAUCCUGAAGGAAACUAGUAAGAUCAGAUUUUUGGGUCAUGUCUGUUGUAUUUUCAGUAAUGUGAUUUCAGAUGGUCAUUGGAAUUCUCGGGUGCCAA	0.351

Series 4
Molecule: PhoQ, residues 284 288 289 292 302 303 SVTLVV
Method: Sort-seq
Refers to: YFP reporter
Sample: E. coli
Setting: PhoQ-PhoP variant library
Together with: 10 µM Mg2+
Baseline: high Mg2+ state
Direction: higher = stronger signaling
target	fold induction
PhoP, residues 12 14 15 18 19 QYCSL (Escherichia coli, UniProt P23836)	12.3
PhoP, residues 12 14 15 18 19 STHWV (Escherichia coli, UniProt P23836)	0.619
PhoP, residues 12 14 15 18 19 SHWTV (Escherichia coli, UniProt P23836)	1.28

Series 5
Target: Interferon regulatory factor 5, full length, phosphomimetic (IRF5, Homo sapiens, UniProt Q13568-2, residues 1-514, K96S/S451D/S453D/S456D/S462D)
Method: protein-binding microarray
Form: double-stranded DNA, one strand shown
Sample: in vitro
Tested at: 250 nM
Setting: 60-bp whole probe
Together with: salmon DNA 0.4 mg/ml
Baseline: random background probes
Direction: higher = stronger binding
Shared flanks, not repeated: GCCTAGCAC … GTCTTGATTCGCTTGACGCTGCTG
Sequence	log fluorescence [z-score]
TTAGGACTGCTACTGCTTTTGTGCTAG	-0.012
AACGGTTCCCTTTTCCTGACGTGCTAG	0.282
AACGGTTTCCTACTGCTGACGTGCTAG	0.686
CTTTCTCCCAAGTCTTGTTTTGTGCTA	1.83
TATTTTGGAAACTCACAACAGTGCTAG	0.434
TTAGGACTGCTTTTTCTTTAGTGCTAG	0.495
TCAACTCTTTCTGTCAGACTGTGCTAG	3.86
GACGGCCTGGGGACTGGGGACGTGCTA	-0.798
TCAAGTTTAATATCTAAGACTGTGCTA	0.19
GACGTTATCCTTCTCCTGACGTGCTAG	0.134
TCAACTTTCTACTTCTCACTGTGCTAG	2.84
GACGGTTTCGTTCTCGGGACGTGCTAG	5.75
TTAGGTCACCTTATCCTTTAGTGCTAG	-0.118
GGGAGCTATTAATTATTTTGGTGCTAG	0.0714
GACGGTTTCCTATTGCTGACGTGCTAG	0.668
CATATTCTCTTCTTGCATCTGTGCTAG	0.799

Series 6
Target: Histone acetyltransferase KAT6A, winged helix 2, GST fusion (KAT6A, Homo sapiens, UniProt Q92794, residues 85-181)
Method: protein binding microarray
Form: double-stranded DNA, one strand shown
Sample: in vitro
Tested at: not given
Setting: 8-mer, flanks averaged, mean of 2 arrays, mostly near background
Baseline: not given
Direction: higher = stronger binding
Residues (chain): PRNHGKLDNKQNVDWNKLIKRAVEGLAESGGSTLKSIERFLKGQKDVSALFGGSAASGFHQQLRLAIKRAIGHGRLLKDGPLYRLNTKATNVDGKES
Sequence	E-score
CTCCCCGA	0.0954
CACAAAGG	-0.0463
CAGGCCGC	0.069
CCTACTGA	-0.139
GATCGAAC	-0.0352
AATAGCAA	0.117
TAACCGCA	0.167
AAGAAGAG	0.0998
CCTCTCAC	0.104
CCCTAATA	0.000125
CCCCGACA	0.14
AGCTTTTA	-0.018
CGAGTAGA	-0.0385
ATTTGGAG	0.102
AGCTGGGG	-0.014
CTCATCCC	-0.0833
ACCAGGGG	0.157
CCTGGGGA	-0.167
ACCTGCGA	0.0809
AATTTACA	-0.0353
CGCCACCA	-0.0391
ACCACTAG	-0.196
AGCGGTAG	-0.0181
ACAGATTG	-0.103
CTTCAAAG	-0.062

For quick reference, copied from above (series 2):
Sequence	fluorescence intensity
ATGGGTCTGTTTACTCATGTGACGCTCTATGCGCTGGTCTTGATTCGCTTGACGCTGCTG	357 a.u.
CGTCCTAGTGATTGTCACCGGACTTCCATGAGGAAGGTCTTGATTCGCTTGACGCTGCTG	79.6 a.u.
AAAGCGGTAATTTTTCACGTGGAATCAAATATCTATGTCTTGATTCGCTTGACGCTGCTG	933 a.u.
ATGAAGTGAAATCGGCACGTGGAGGTCAGAAGAGTCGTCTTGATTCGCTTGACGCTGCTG	1050 a.u.
ACAACAACATTATACAACGTGGTAACCAAATTTTTCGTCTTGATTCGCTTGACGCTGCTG	162 a.u.
TATCCTAAATGCCATCACGATGATAAATCCTCCGCCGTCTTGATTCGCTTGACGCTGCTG	118 a.u.
GACAATTTGATTTATGACCTGATTCACAGAATTCGCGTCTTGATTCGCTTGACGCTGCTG	74.4 a.u.
CGTCCTAGTGATTGTAAAGTGGGTGCCATGAGGAAGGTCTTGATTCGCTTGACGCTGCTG	86 a.u.
AAAGCGGTAATTTGTAAAGTGGGTGCAGATATCTATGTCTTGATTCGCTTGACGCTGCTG	69.5 a.u.
TGCGCAACAACTTGTAGAGTGGGTGTATGTCTAGAAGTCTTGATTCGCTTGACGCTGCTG	57.5 a.u.
CGTCCTAGTGATTGTGGGGTGGGTGCCATGAGGAAGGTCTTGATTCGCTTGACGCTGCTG	86 a.u.
TGTTTGGCTGGTGTGTACGTGGTGAAAACCAAGAATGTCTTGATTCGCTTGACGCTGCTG	65.8 a.u.
